# Measured values from different studies.
# Numbered parts are unrelated; each lists some results of a single study. Positions count from the first letter of the parent shown.

# Block 1 — method: RNA Bind-n-Seq; molecule type: RNA; sample: in vitro; concentration: 200 nM; setting: whole 134-nt RNA, ends assumed; with: 150 mM KCl; reference: input library; direction: higher = stronger binding
# Target: Ras GTPase-activating protein-binding protein 1, full length (G3BP1, Homo sapiens, UniProt Q13283)
# Sequence of UniProt Q13283 (whole entry, looked up): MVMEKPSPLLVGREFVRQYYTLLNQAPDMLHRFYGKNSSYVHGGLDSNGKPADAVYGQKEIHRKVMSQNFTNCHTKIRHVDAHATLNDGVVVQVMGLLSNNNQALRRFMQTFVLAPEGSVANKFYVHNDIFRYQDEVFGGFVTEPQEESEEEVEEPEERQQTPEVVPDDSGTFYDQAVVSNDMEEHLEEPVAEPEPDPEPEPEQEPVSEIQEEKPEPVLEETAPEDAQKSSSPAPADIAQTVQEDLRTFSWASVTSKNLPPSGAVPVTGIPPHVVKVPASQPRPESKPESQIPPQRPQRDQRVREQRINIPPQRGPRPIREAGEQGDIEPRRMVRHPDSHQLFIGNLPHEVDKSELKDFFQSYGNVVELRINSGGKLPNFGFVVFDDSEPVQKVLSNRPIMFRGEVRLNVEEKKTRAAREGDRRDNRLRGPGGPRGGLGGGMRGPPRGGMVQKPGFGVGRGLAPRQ
Strand,log2 enrichment
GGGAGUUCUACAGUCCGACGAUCACCAUGCAGGUGGGCAUCUUUGGGAAGUGGGGCAAGGGGGGGAUAGGGAGGGGGGUAACACUUUGGGAACAGGUGGUCCCAGGUUGUUUCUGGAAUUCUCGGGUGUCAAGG,0.844
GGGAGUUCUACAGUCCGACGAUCCUGUGCUACACAUCGUAUGUACCGAAUCGGGGAAAGGGGUUUUUUUGGGGUUUUUUUGGGGAAAGUAUUAUGUUACGCCGUUCGGAUCUGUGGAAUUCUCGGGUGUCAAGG,-0.185
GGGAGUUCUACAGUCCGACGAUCUUCACAGGUAAGUGGGGCAGUGUCCGGACCAGUGGACGCAGCAGUGGCCUUGGCACCGAUGUGGGCUCCCGGCUAGCUGGCAGAGACGCGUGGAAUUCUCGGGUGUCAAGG,-1.14
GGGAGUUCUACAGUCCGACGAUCGUCCUGUGCUACACAUCGUAUGUACCGAAUCAAACCCCCAAAUUUUUUUAAAUUUAAAAAAGUAUUAUGUUACGCCGUUCGGAUCUGCACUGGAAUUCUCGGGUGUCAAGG,0.129
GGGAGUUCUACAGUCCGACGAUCCAAGUCCUGUGCUACACAUCGUAUGUACCGAAUCGGGUUUGGGUUUGGGUUUGGGGAAAGUAUUAUGUUACGCCGUUCGGAUCUGCACUUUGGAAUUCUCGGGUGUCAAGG,0.794
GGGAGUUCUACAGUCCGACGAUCGUCCUGUGCUACACAUCGUAUGUACCGAAUCAAACCCCCCCAAACCCCCAAACCCAAAAAAGUAUUAUGUUACGCCGUUCGGAUCUGCACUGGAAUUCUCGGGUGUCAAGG,-0.185
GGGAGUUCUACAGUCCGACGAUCAGUCCUGUGCUACACAUCGUAUGUACCGAAUCGGGAAAGGGAAAAAGGGUUUUUGGGAAAGUAUUAUGUUACGCCGUUCGGAUCUGCACUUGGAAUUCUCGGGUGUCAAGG,-0.234
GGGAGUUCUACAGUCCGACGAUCAGUCCUGUGCUACACAUCGUAUGUACCGAAUCGGGAAAAAGGGUUUUUUUGGGUGGGAAAGUAUUAUGUUACGCCGUUCGGAUCUGCACUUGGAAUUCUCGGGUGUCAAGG,0.0654
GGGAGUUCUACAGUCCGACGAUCCAAGUCCUGUGCUACACAUCGUAUGUACCGAAUCGGCCCCGGCCCCGGGCCCCGGGAAAGUAUUAUGUUACGCCGUUCGGAUCUGCACUUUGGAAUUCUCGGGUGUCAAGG,-0.502
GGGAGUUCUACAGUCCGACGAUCCACAGACAACACGCACCCACACAGACACAGAGGGAAGGGGUUGGGAUGGGGACAGGGUGCACAGCAGGGCGGGGUAGGACCGCAGCCCCUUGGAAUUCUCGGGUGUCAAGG,1.78

# Block 2 — method: DHFR PCA, deep sequencing; sample: yeast; with: (+)-ABA 0 µM; reference: wild-type fitted maximum; direction: higher = stronger binding
# Target: ABI1, truncated, D143A, DHFR fusion (Arabidopsis thaliana)
# Setting: methotrexate growth selection, single substitutions
# Parent: PYL1, truncated, DHFR fusion (Arabidopsis thaliana); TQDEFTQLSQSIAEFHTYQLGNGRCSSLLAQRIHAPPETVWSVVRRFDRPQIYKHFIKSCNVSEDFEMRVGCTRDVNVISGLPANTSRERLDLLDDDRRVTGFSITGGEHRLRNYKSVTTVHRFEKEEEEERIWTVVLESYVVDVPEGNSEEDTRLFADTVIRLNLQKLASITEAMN
Change,relative binding score
G108R,-0.448%
L138Y,2.81%
T154P,-5.09%
N177Q,21.4%
E38Q,-2.29%
L93E,0.0143%
L29M,-0.986%
L94R,0.14%
L169Y,-7.7%
Y53K,-13%
L8K,-7.55%
T1E,23.8%
V62C,4.26%
V143C,45.5%
I79F,22.3%

# Block 3 — target: CREBRF, bZIP domain (human); method: DHFR protein complementation; sample: yeast; reference: wild-type JUN-FOS pair; direction: higher = stronger binding
# Setting: single substitutions, most at no-binding floor
# Parent: JUN, bZIP domain (human); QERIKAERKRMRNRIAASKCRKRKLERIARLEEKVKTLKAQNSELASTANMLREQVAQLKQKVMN; partner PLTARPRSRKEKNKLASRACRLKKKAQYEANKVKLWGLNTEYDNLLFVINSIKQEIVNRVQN
Change,binding fitness
S43L,-1.39 natural log
V35K,-1.51 natural log
L31W,-1.42 natural log
K36F,-1.47 natural log
R30L,-1.54 natural log
A29Q,-1.47 natural log
V35T,-1.56 natural log
A57G,-1.52 natural log
N42I,-1.49 natural log
R30Y,-1.43 natural log
V56K,-1.56 natural log
E32F,-1.39 natural log
R30P,-1.33 natural log
E33V,-1.52 natural log

# Block 4 — method: protein binding microarray; molecule type: double-stranded DNA, one strand shown; sample: in vitro; concentration: not given; reference: not given; direction: higher = stronger binding
# Target: Histone acetyltransferase KAT6A, winged helix 1, GST fusion (KAT6A, Homo sapiens, UniProt Q92794, residues 1-85)
# Setting: 8-mer, flanks averaged, mean of 2 arrays, mostly near background
# Target sequence (chain): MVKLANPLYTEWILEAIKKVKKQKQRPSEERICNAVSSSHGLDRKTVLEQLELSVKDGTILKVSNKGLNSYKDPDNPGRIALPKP
Strand,E-score
CTTCGAAC,0.00661
AGCTCGCC,0.141
AGGAGCAC,-0.194
CTAACGTC,-0.0467
GAATTGGC,-0.14
ACATAGCC,-0.0648
TACAAACA,-0.103
ACCTTCGG,0.0144
TATGCGCA,0.333
GTGTGATA,-0.131
GACTACCA,-0.153
AAGTGCCA,-0.261
GGTGCTAA,-0.0575
CGGCAGAG,0.189
GATGCCAC,-0.191
CATTACAG,0.0352
ATTCTCAG,-0.199
AACTGTTC,-0.12

# Block 5 — target: CCND1, cyclin fold, Cln2 fusion (human); method: yeast growth competition, sequencing; sample: yeast; setting: strong parent motif; reference: not given; direction: higher = stronger binding
# Parent: RBL2 docking peptide (human); STTRRRLFVENDS
Change,normalised enrichment score
R6Q,2.17
T2Q,1.81
T2Y,0.823
L7E,0.624
S13W,0.786
E10K,-0.372
T3K,-0.28
D12F,-0.0568
F8L,-0.0116
V9F,1.91
E10I,-0.0981
R5Y,0.548
L7I,0.391
R6P,-0.0452
R6A,1.17
D12T,0.654
N11H,0.531
T2E,1.92
D12R,0.389
D12H,1.11
L7R,0.116
L7Y,-0.0485
E10Y,-0.439
R5A,-0.213
S13I,1.61

# Mixed results
Substance,target,assay,test system,setting,scale,endpoint,result
"PhoQ, residues 284 288 289 292 302 303 SACGEM","PhoP, residues 12 14 15 18 19 LHATL (Escherichia coli, UniProt P23836)","Sort-seq, measured: YFP reporter",E. coli,"PhoQ-PhoP variant library, with: 10 µM Mg2+","reference: high Mg2+ state, higher = stronger signaling",fold induction,24.3

# Repeated from above (block 5):
Change,normalised enrichment score
R6P,-0.0452
R6A,1.17
D12R,0.389
D12H,1.11
L7Y,-0.0485
D12F,-0.0568
S13I,1.61
E10K,-0.372
F8L,-0.0116
L7I,0.391
